Assay results gathered from unrelated publications.
Each numbered part is a random draw from the data of one study; scales do not carry over between parts. Positions count from the first letter of the parent shown.

Study 1
Molecule: KRT8 (Homo sapiens, UniProt P05787)
Technique: cross-linking MS
Sample: cells
Together with: BSPNO
Endpoint: cross-linked residues
partner = KRT77 (Homo sapiens, UniProt Q7Z794); value = K176 to K253
partner = KRT74 (Homo sapiens, UniProt Q7RTS7); value = K264 to K150
partner = KRT20 (Homo sapiens, UniProt P35900); value = K264 to K245
partner = KRT7 (Homo sapiens, UniProt P08729); value = K285 to K365
partner = CSPP1 (Homo sapiens, UniProt Q1MSJ5); value = K11 to K974
partner = CCDC88A (Homo sapiens, UniProt Q3V6T2); value = K160 to K839
partner = NTS (Homo sapiens, UniProt P30990); value = K160 to K156
partner = FBLN7 (Homo sapiens, UniProt Q53RD9); value = K264 to K45

Study 2
Target: CCNB3, cyclin fold, Cln2 fusion (human)
Technique: yeast growth competition, sequencing
Sample: yeast
Setting: weak parent motif
Relative to: not given
Reading: higher = stronger binding
Endpoint: normalised enrichment score
Starting sequence: CDKN1C docking peptide (human); TSACRSLFGPVDH; partner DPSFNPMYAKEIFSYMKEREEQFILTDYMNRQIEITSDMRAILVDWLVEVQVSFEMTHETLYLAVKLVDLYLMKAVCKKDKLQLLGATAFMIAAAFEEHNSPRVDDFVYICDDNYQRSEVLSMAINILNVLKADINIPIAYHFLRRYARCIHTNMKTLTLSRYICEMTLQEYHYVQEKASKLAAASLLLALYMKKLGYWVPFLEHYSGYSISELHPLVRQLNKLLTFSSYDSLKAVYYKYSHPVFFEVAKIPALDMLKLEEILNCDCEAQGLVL
Change = TSACRALFGPVDH [S6A]; value = 0.354
Change = TSACRSLLGPVDH [F8L]; value = 0.106
Change = TSACRSLFAPVDH [G9A]; value = 0.887
Change = TSACASLFGPVDH [R5A]; value = 0.135
Change = ASACRSLFGPVDH [T1A]; value = 0.612
Change = TSACRSLFGAVDH [P10A]; value = 0.417
Change = TSACKSLFGPVDH [R5K]; value = 0.442
Change = TAACRSLFGPVDH [S2A]; value = 0.672

Other studies, line by line
P1: PafA, mature enzyme, eGFP fusion (Elizabethkingia meningoseptica, UniProt Q9KJX5); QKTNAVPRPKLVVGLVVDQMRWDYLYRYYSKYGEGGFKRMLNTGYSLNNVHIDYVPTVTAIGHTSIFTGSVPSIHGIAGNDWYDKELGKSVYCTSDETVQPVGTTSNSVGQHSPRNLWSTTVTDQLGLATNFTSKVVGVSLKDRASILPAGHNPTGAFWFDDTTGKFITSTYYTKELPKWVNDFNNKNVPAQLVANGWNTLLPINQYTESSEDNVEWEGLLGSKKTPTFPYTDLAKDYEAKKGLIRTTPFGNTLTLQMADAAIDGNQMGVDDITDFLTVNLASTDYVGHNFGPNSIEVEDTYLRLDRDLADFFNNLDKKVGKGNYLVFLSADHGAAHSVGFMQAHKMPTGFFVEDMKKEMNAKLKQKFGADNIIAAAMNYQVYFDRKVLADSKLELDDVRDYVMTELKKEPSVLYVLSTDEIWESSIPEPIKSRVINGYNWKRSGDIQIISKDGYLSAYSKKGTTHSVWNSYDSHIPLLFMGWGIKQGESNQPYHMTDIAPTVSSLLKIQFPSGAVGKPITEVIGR
Molecule = RNF40 (Homo sapiens, UniProt O75150); target or system = RNF20 (Homo sapiens, UniProt Q5VTR2); test = cross-linking MS; conditions = hits only; endpoint = interaction screen; value = cross-linked
Molecule = P1 V139A; target or system = inorganic phosphate, free oxyanion; test = microfluidic competitive inhibition; test system = in vitro, cell-free expressed; conditions = not given, derived from inhibition constants, unchanged parent 615000 nM; scale = lower = stronger binding; endpoint = phosphate dissociation constant; value = 595 µM
Molecule = ESYT2 (Homo sapiens, UniProt A0FGR8); target or system = ESYT1 (Homo sapiens, UniProt Q9BSJ8); test = cross-linking MS; test system = cell fractions; conditions = together with: DSSO; endpoint = cross-linked residues; value = K578 to K189
Molecule = MDH2 (Homo sapiens, UniProt P40926); target or system = HSPE1 (Homo sapiens, UniProt P61604); test = cross-linking MS; test system = cell fractions; conditions = together with: DHSO; endpoint = cross-linked residues; value = E232 to E59
Molecule = ALDOA (Homo sapiens, UniProt P04075); target or system = ALDOC (Homo sapiens, UniProt P09972); test = cross-linking MS; conditions = hits only; endpoint = interaction screen; value = cross-linked

For quick reference, copied from above (other studies, line by line):
Molecule = ESYT2 (Homo sapiens, UniProt A0FGR8); target or system = ESYT1 (Homo sapiens, UniProt Q9BSJ8); test = cross-linking MS; test system = cell fractions; conditions = together with: DSSO; endpoint = cross-linked residues; value = K578 to K189
Molecule = MDH2 (Homo sapiens, UniProt P40926); target or system = HSPE1 (Homo sapiens, UniProt P61604); test = cross-linking MS; test system = cell fractions; conditions = together with: DHSO; endpoint = cross-linked residues; value = E232 to E59
Molecule = ALDOA (Homo sapiens, UniProt P04075); target or system = ALDOC (Homo sapiens, UniProt P09972); test = cross-linking MS; conditions = hits only; endpoint = interaction screen; value = cross-linked
